Experimental data pooled from the literature.
Each numbered part is a random draw from the data of one study; scales do not carry over between parts.

Sample 1 — method: protein binding microarray; form: double-stranded DNA, one strand shown; matrix: in vitro; concentration: not given; relative to: not given; direction: higher = stronger binding
Target: Histone acetyltransferase KAT6A, both winged helices, GST fusion (KAT6A, Homo sapiens, UniProt Q92794, residues 1-181)
Setting: 8-mer, flanks averaged, mean of 2 arrays, mostly near background
Target sequence (chain): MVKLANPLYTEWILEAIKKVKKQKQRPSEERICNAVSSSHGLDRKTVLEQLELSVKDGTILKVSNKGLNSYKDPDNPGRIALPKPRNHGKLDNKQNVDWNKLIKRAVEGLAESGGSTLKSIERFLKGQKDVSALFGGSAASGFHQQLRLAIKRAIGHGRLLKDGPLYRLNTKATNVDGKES
| Oligonucleotide | E-score |
| --- | --- |
| CCGGTACA | 0.177 |
| CGTGTACC | 0.058 |
| AGCCAGGC | -0.151 |
| AAGATACG | 0.104 |
| ACCCCGGA | -0.00413 |
| GGACCAAA | -0.0989 |
| TAACTTGA | -0.153 |
| ATATATTG | -0.127 |
| ATGACAGG | -0.107 |
| ACATCAAG | -0.0133 |
| CTGCATGC | 0.0566 |
| CCTGCAAG | -0.172 |
| AGTGGTGA | -0.131 |
| ATTCGATG | -0.084 |
| CTGCTCTA | -0.128 |
| AGGGAAAA | -0.118 |
| ACCGCTCG | 0.225 |
| AATAAAAC | -0.0953 |
| GCAGTTAC | 0.046 |
| CGCCACTC | 0.105 |
| AAGACAAT | -0.103 |
| AGCTTGAT | -0.0485 |
| ACTTCAAC | -0.119 |
| GCGTTAGC | 0.222 |
| CTAATTGC | 0.034 |

Sample 2 — method: RNAcompete; form: RNA; matrix: in vitro; concentration: 20 nM; setting: 7-mer, probes averaged, single round; relative to: mean of 7-mers; direction: higher = stronger binding
Target: PABPC1L2, full length, GST fusion (mouse, UniProt A0ABA7IW68)
Construct (chain): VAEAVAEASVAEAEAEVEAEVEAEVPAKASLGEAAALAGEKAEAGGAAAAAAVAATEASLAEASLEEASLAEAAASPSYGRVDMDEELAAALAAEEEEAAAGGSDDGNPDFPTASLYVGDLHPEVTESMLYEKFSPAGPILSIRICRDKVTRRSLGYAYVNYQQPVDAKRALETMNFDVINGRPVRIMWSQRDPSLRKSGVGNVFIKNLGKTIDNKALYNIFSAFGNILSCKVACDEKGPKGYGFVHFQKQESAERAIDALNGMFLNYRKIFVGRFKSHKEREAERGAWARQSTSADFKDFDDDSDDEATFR
| Oligonucleotide | 7-mer Z-score |
| --- | --- |
| ACUCUAG | -0.246 |
| CAGCGAG | -0.0863 |
| AAUCUAU | 0.104 |
| GUUUUAU | -0.229 |
| UGCCAUC | -0.142 |
| ACAAGGU | 0.0551 |
| GUAAGGA | 0.0424 |
| UGGCUAG | -0.0699 |
| ACCUAGU | -0.298 |
| GGUGUCG | -0.0844 |
| GUACUUU | -0.295 |
| UGACUCA | -0.24 |
| CUGUGCA | -0.0736 |

Sample 3 — method: RNA Bind-n-Seq; form: RNA; matrix: in vitro; concentration: 100 nM; relative to: input RNA pool; direction: higher = stronger binding
Target: RING finger protein unkempt homolog, zinc fingers 1-6, SBP tag (UNK, Homo sapiens, UniProt Q9C0B0, residues 30-357)
UniProt Q9C0B0, sequence (30-357, looked up): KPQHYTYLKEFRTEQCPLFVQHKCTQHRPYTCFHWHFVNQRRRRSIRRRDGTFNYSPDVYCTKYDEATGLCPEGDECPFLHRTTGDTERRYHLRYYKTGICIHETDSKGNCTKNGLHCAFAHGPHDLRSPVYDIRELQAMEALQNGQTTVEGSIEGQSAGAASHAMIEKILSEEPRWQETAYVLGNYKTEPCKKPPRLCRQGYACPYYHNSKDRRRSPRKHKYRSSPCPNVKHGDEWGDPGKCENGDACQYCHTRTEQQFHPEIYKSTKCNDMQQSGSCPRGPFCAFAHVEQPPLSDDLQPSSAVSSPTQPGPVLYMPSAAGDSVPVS
Setting: RNA with constant flanks, vertebrate orthologous sites, ends assumed
| Oligonucleotide | bound/input enrichment |
| --- | --- |
| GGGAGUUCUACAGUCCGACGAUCUAAUGUACUCUUAUUUAUUGAGGAUAGUUUUGUGCUGAGGAUUGUGCUAGACUUAAACUAAUGCUGAUGUUCUUCUUCGUUGUAUUGUUUCAUUCCUGGAAAUAAAAUUUUGUAUACAAACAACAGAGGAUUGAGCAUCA | 0.712 ratio |
| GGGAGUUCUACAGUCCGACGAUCAAAACCCCGAUUUUAGAUGUGAUAUUUAGGUUUUCAUUCCAGUUUGUUUUGUUUUUUGUUUAGAUACCAAUCUUUUAAAUUCUUGCAUUUUAGUAAGAAAGCUAUCUUUUUAUGGAUGUUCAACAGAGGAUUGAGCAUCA | 1.63 ratio |
| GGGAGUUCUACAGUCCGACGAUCAGAAAAUUUUAAUCAAGAAUCUGAAGGUAGAAAUACAGGACCAUGGUUAUCUUCUUCACUUAGAAAUAGAUGCACACCCUUGUUCUCUAGAAGGAGGCGAGAGGGACGAGAUGAAUCUUCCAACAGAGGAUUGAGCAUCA | 0.519 ratio |
| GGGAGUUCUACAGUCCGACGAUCUGUGUUGGUGCAGAGCGCUCUGUGCCAGUGCUCAUCAUCCCUUCUUCACACCACUGUCCCUAGUUAUAGGAAUUUAAUAUUUUUAAAAGUUUUACAUUGCUGUAUAUUCAAAGAUUUGUUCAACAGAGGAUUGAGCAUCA | 0.921 ratio |
| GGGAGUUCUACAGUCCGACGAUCUGUCUUGGUUUGGGAUAGAGGGGAGGGAGGGGCAGGACAGUGUGGAAUCUCUAGGGUGUAUGGGUAGAUAGGCUGCACGGUUAGUUCUAAUUGGGCCUUUAUGUUAAUCUCUGGGGGGUGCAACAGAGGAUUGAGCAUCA | 0.642 ratio |
| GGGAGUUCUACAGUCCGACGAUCGCAAUGAAAAAACAGCCCUCCUCCCAGCCCCCAUUUCACUAGGAGAUGCAAACAUUACCAUAGAAGAGCAAUUUAACUCAAUAAAUUUAUCUUUUCAGGAUGAUCCAGACUCCAGUACCACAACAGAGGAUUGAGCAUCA | 0.779 ratio |
| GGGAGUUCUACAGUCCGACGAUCGCUACAGGGAAAAGAGCUCACAAACUCAAAACUAUUAAAGAAGUUCUAAUAGUUAAAAGCUAGGAAAGAUUAGGACAAUUUUACAAAUGAGCAAUUAAAAAUAAAACAAAAGAAAAAGGACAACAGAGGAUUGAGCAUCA | 1.12 ratio |
| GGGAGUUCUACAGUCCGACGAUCCAUGGGCCCCCUGUGAUUGAAAAUGGGGGUGGCUCAAGAUGACCCUCAGCUGUUCCAAUCCAGUAUUUUUCUCUUUUUUAAAAAAUUACUGUAUUUAUUAUGACAAUGGUGACUCCCCGUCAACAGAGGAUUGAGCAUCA | 0.348 ratio |
| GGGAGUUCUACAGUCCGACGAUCCACAUCAGGUGAUAUAUGGCCUGGCCUUUCUGCUUAUGAUAAUAGUCCCAGAUCACCCCAUAGUCCUUCACCUAUUGCUACACCACCUAGUCAGAGUUCAUCAUGCUCUGAUGCCCCCAUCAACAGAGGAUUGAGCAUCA | 0.693 ratio |
| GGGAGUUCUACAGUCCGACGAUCAUUUCAAAUGUAGCUAGUUAUAUUUAAUGACCUCAUUCCUGAGUUCCUUUUUCAUUAAAGUAGCUUUCAUUUCUUUUAUUGCAUUUUUAAAAAUAUGAAUAAAGAAAAGGUUCGUGCCAGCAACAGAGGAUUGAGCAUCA | 0.255 ratio |
| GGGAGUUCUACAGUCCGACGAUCCUGUUUUGUGAAACAUGUCUACCCAGAAAAGUAACAUUCUAUAAAUACUAUUAAACAACUUAGCUAUGUUAUUUUUAAGUAUUAAAUUAUAUGUCAGUUAAAGUGAAUUUCAGAGUAAAACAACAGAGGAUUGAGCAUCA | 0.577 ratio |

Sample 4 — method: protein-binding microarray; form: double-stranded DNA, one strand shown; matrix: in vitro; concentration: 2540 nM top; setting: 60-bp whole probe; added: salmon DNA 0.4 mg/ml; relative to: random background probes; direction: higher = stronger binding; shared flanks, not repeated: GCCTAGCAC … GTCTTGATTCGCTTGACGCTGCTG
Target: Interferon regulatory factor 3, full length, phosphomimetic (IRF3, Homo sapiens, UniProt Q14653, residues 1-427, S386D/S396D/S398D/S402D/T404D/S405D)
Construct (chain): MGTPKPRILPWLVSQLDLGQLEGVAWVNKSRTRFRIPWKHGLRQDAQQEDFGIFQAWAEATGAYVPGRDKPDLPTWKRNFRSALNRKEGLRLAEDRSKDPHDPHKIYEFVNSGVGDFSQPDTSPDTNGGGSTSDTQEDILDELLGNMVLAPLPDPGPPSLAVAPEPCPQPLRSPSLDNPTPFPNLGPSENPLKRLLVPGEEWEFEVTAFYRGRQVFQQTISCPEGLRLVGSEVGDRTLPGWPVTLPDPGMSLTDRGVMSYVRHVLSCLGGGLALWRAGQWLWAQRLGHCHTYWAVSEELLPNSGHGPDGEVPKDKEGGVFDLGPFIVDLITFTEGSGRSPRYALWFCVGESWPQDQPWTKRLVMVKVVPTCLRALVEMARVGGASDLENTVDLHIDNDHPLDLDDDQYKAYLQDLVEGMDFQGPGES
| Oligonucleotide | fitted relative affinity [z-score] |
| --- | --- |
| GAAGATATCAGTATCGAGACGTGCTAG | 1.13 |
| GGCAGCCTCTGCATTCCCTCAGTGCTA | -1.26 |
| GACGATATCGGGTTTCGAAACGTGCTA | 2.33 |
| ATTCCTTTGCCTCCAGGCGCGTGCTAG | 1.94 |
| TTAGCTCTCAGTCTCGATTAGTGCTAG | 0.289 |
| GACGCTATCAGTTTCGAGACGTGCTAG | 3.3 |
| TATGTTCACTATTTAAGAACGTGCTAG | 1.39 |
| TCACGTATCTTCATTGTACTGTGCTAG | 0.0971 |
| TCAGGTATTTTTTTCTAACTGTGCTAG | 0.538 |
| GACGGACTGGGACTGGGGAGGTGCTAG | -0.906 |
| GACGAACTGGGGTATCGAAACGTGCTA | -0.0373 |
| AAATATATACAAACTAAGGATGTGCTA | 0.602 |
| GATGATATCAGACTGGAGACGTGCTAG | -0.181 |
| GACGATAGCAGTTTCGAGACGTGCTAG | 1.63 |
| TTTGGACTGGGGTATCGGTTAGTGCTA | -0.0796 |
| TTTTTTTTATTTATAAATTAGTGCTAG | 1.93 |
| TTAGGTCTCCTCCTGCTTTAGTGCTAG | 0.042 |
| TTAGGTTTCGACACTCGGTTAGTGCTA | 2.37 |
| GTAGGACTGGGGACTGGGTTAGTGCTA | -1.29 |
| TTAGGGTTCGGGTATCGGTTAGTGCTA | 0.769 |
| GACGGTATCGACTACCGGGACGTGCTA | 0.56 |
| GACGGACTGCTATTCCTGACGTGCTAG | -0.329 |
| TTAGATTTCAGTATCGATCAGTGCTAG | 2.31 |
| GACGTTTTCGGGTTTCGGGACGTGCTA | 3.41 |

Sample 5 — method: universal PBM; form: double-stranded DNA, one strand shown; matrix: in vitro; concentration: not given; direction: higher = stronger binding
Target: Sal-like protein 4, full length isoform B (SALL4, Homo sapiens, UniProt Q9UJQ4-2, residues 1-616)
Setting: 8-mer, flanks averaged, mean of replicates
| Oligonucleotide | E-score |
| --- | --- |
| CCACGGGG | -0.345 |
| AACGCGGT | -0.0648 |
| ACGACATG | 0.00988 |
| AGTTAACG | 0.0975 |
| ACGCGATA | 0.00515 |
| GATGGAGC | -0.167 |
| AGATCGAT | -0.00663 |
| CACTAGCC | -0.2 |
| AATGCGAT | 0.196 |
| GGTTTGAA | 0.0381 |
| GGTAGCAA | 0.0885 |
| CGAATCAC | -0.105 |
| CCTTGACA | -0.0953 |
| CTAATGAC | 0.14 |
| CTGTTTCC | 0.114 |
| AGAATTGA | 0.144 |
| CACAATGC | -0.0578 |
| ATATGAAG | 0.32 |

Some of these lines once more (sample 1):
| Oligonucleotide | E-score |
| --- | --- |
| CTGCTCTA | -0.128 |
| AGGGAAAA | -0.118 |
| ACCGCTCG | 0.225 |
| AATAAAAC | -0.0953 |
| GCAGTTAC | 0.046 |
| CGCCACTC | 0.105 |
| AAGACAAT | -0.103 |
| AGCTTGAT | -0.0485 |
| ACTTCAAC | -0.119 |
